Results of several laboratories.
Every numbered part comes from another study and shows a few of its results, in no order.
Sequence of UniProt P35626 (whole entry, looked up): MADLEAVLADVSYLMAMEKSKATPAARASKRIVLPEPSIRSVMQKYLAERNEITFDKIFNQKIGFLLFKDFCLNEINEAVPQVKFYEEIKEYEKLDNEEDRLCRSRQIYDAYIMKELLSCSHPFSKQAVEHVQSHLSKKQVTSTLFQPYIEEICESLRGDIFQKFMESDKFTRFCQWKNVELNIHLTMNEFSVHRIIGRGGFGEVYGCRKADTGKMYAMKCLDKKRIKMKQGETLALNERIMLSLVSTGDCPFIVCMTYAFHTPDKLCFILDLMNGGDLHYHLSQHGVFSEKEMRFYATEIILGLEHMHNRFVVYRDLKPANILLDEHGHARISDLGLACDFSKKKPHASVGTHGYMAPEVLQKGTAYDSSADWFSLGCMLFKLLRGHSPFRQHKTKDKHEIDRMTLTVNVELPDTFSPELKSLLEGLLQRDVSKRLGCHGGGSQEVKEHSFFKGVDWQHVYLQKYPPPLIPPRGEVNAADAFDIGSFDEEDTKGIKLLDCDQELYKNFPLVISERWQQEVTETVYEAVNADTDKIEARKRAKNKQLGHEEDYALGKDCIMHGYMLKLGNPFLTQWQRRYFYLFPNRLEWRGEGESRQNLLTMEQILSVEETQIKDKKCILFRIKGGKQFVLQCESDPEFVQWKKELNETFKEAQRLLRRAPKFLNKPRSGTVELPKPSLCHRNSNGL
Sequence of UniProt Q13976 (whole entry, looked up): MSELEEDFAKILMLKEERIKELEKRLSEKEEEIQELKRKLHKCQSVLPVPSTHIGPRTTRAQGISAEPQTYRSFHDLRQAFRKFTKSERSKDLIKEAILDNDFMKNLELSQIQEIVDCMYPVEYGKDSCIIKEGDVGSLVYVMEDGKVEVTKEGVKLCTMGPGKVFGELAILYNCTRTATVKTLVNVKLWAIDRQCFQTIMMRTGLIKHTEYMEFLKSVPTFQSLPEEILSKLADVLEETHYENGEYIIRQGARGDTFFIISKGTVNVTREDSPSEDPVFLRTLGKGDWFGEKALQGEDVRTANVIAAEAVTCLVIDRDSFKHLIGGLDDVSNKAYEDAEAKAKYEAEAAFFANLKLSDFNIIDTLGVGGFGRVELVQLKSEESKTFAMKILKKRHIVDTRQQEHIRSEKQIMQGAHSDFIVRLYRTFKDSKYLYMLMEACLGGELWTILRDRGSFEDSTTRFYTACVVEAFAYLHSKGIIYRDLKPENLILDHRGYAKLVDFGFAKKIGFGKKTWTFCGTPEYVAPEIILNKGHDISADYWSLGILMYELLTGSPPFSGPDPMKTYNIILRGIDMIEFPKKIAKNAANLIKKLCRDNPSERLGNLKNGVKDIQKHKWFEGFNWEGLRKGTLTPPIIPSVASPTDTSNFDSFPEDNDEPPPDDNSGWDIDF
Sequence of UniProt Q15831 (whole entry, looked up): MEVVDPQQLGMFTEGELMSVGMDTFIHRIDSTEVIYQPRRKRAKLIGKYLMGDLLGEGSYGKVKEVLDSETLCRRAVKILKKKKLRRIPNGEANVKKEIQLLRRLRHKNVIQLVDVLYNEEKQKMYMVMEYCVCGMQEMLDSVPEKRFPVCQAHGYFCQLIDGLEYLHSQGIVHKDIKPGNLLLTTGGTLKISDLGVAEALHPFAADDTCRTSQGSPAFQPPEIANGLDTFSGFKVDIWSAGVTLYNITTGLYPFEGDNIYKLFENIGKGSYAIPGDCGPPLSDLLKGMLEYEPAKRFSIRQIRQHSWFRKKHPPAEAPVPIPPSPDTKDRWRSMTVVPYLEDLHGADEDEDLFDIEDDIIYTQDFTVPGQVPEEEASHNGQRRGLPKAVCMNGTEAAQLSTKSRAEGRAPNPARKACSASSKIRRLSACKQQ
Sequence of UniProt Q99759 (whole entry, looked up): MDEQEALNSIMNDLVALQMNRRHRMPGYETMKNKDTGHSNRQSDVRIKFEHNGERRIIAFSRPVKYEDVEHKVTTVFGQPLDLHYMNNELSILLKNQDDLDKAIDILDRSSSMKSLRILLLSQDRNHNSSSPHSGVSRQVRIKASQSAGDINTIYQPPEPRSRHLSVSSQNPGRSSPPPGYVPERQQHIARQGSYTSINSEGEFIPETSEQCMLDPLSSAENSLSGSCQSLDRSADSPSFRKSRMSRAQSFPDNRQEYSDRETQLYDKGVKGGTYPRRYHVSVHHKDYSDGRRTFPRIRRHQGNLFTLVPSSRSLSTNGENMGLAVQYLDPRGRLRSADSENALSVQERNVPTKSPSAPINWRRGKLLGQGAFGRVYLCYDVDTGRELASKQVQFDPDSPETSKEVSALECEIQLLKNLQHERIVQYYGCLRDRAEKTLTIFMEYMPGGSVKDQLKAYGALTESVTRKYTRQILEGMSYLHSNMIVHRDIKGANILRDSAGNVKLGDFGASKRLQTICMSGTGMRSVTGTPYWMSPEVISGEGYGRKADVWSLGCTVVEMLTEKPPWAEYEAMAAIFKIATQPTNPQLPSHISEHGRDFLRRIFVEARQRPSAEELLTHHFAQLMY
Sequence of UniProt P37173 (whole entry, looked up): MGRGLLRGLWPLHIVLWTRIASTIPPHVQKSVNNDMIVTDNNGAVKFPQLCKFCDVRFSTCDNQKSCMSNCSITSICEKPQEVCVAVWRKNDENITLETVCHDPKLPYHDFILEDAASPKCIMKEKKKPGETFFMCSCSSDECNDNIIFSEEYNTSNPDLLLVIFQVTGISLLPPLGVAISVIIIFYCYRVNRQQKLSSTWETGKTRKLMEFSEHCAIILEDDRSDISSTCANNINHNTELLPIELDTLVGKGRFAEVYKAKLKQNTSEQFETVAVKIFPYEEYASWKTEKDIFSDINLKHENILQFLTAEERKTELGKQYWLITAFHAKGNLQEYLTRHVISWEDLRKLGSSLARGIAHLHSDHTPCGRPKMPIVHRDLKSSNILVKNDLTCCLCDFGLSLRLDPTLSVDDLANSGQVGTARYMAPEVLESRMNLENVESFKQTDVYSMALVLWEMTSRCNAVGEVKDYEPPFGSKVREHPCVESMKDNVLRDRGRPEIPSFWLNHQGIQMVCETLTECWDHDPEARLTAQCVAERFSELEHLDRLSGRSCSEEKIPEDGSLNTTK
Sequence of UniProt Q13557 (whole entry, looked up): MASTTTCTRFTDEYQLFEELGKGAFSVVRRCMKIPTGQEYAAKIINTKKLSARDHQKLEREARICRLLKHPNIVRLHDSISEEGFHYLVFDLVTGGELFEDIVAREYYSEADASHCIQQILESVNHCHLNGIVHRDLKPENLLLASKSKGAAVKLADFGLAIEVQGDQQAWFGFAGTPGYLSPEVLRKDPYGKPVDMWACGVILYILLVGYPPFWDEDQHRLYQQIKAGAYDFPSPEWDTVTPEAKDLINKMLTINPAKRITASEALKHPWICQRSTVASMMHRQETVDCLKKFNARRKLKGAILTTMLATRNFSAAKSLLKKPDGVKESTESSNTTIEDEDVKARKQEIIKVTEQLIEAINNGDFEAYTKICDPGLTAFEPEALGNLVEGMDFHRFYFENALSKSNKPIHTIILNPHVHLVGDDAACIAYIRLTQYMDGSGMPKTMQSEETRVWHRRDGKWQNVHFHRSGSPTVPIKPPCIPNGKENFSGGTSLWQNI
Sequence of UniProt P11802 (whole entry, looked up): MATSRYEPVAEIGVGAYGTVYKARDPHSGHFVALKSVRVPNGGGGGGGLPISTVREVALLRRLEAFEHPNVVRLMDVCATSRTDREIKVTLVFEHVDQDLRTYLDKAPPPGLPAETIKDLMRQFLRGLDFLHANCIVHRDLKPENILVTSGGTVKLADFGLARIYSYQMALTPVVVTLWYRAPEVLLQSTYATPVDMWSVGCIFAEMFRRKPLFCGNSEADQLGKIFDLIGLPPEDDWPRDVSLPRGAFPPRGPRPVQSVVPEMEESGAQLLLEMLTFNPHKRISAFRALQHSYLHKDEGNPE

Study 1 — SMILES: O=C(c1ccccc1)c1ccc(N2CCOCC2)cc1O; observed: enzyme activity; action: inhibitor; tested at: 0.5 µM; baseline: control
The remaining activity was 96.1% (Cyclin-dependent kinase 4, with cyclin D1 (CDK4, Homo sapiens, UniProt P11802)).
For IKBKE (Homo sapiens, UniProt Q14164): remaining activity read 101%.
It gave 104% for remaining activity (STK11 (Homo sapiens, UniProt Q15831)).
The remaining activity was 86.8% (cGMP-dependent protein kinase 1, isoform beta (PRKG1, Homo sapiens, UniProt Q13976)).
For CAMK2D (Homo sapiens, UniProt Q13557): remaining activity read 95.1%.
The remaining activity was 94.3% (TGFBR1 (Homo sapiens, UniProt P36897)).
IKBKB (Homo sapiens, UniProt O14920) — remaining activity: 105%.
It gave 97.8% for remaining activity (MAP3K3 (Homo sapiens, UniProt Q99759)).
STK39 (Homo sapiens, UniProt Q9UEW8) — remaining activity: 94.8%.
The remaining activity was 100% (Tyrosine-protein kinase Lyn, isoform B (LYN, Homo sapiens, UniProt P07948)).
CHEK2 (Homo sapiens, UniProt O96017) — remaining activity: 106%.
It gave 98.3% for remaining activity (PRKACA (Homo sapiens, UniProt P17612)).
For MAPK9 (Homo sapiens, UniProt P45984): remaining activity read 98.9%.
DAPK2 (Homo sapiens, UniProt Q9UIK4) — remaining activity: 102%.
CAMKK2 (Homo sapiens, UniProt Q96RR4) — remaining activity: 111%.
For GRK3 (Homo sapiens, UniProt P35626): remaining activity read 103%.
The remaining activity was 109% (TGFBR2 (Homo sapiens, UniProt P37173)).
The remaining activity was 98.8% (Cyclin-dependent kinase 5, with p25 (CDK5, Homo sapiens, UniProt Q00535)).
DAPK1 (Homo sapiens, UniProt P53355) — remaining activity: 92.5%.
It gave 110% for remaining activity (OXSR1 (Homo sapiens, UniProt O95747)).
The remaining activity was 90.1% (Protein kinase C beta type, isoform beta-I (PRKCB, Homo sapiens, UniProt P05771)).
PRKCA (Homo sapiens, UniProt P17252) — remaining activity: 84.2%.
It gave 97.9% for remaining activity (STK10 (Homo sapiens, UniProt O94804)).

Study 2 — organism: Sarcocystis neurona; observed: parasite growth; tested at: 10 µM; time: 96 h; notes: secondary screen
For `CO[C@@]1(NC(=O)Cc2cccs2)C(=O)N2C(C(=O)O)=C(COC(N)=O)CS[C@@H]21`, the inhibition was -17.8%.
For `CCOC(=O)N1CCC(=C2c3ccc(Cl)cc3CCc3cccnc32)CC1`, the inhibition was -32.5%.
The inhibition of `CN(C)CCc1c[nH]c2ccc(Cn3cncn3)cc12` is reported as -27.3%.
`O=C(O)CCNC(=O)c1ccc(/N=N/c2ccc(O)c(C(=O)O)c2)cc1` gave an inhibition of -18.3%.
For `O=C(O)c1cc(-c2ccc(F)cc2F)ccc1O`, the inhibition was -21.4%.
For `CC12CC3CC(C)(C1)CC(N)(C3)C2`, the inhibition was -6.2%.
`Nc1nc2c(ncn2CCC(CO)CO)c(=O)[nH]1` has an inhibition of -33.7%.
With `Cc1onc(-c2ccccc2)c1-c1ccc(S(N)(=O)=O)cc1` the inhibition was -21.9%.
For `Nc1nc2c(ncn2COCCO)c(=O)[nH]1`, the inhibition was -4.8%.
The inhibition of `CN(C)CC[C@@H](c1ccc(Cl)cc1)c1ccccn1` is reported as -18.6%.
`CN(C)CCCSc1ccccc1NC(=O)/C=C/c1ccccc1` has an inhibition of -36.4%.
The inhibition of `Nc1ccn([C@@H]2CS[C@H](CO)O2)c(=O)n1` is reported as -25.2%.
`CN1CCC(=C2c3ccccc3CC(=O)c3sccc32)CC1` gave an inhibition of -41.9%.

Study 3 — species: human; sample: microsomes or S9; tested at: 2 µM; time: 0.5 h
With `C[C@H]1CCCC(=O)CCC/C=C/c2cc(OCc3ccc(Cl)c(Cl)c3)cc(OCc3ccc(Cl)c(Cl)c3)c2C(=O)O1` the remaining compound was 47.5%.
With `Cc1cc(N(C)Cc2ncc(Br)cn2)n2nc(C)nc2n1` the remaining compound was > 100%.
`c1ccc2c(c1)CCCC2N1CCC2(CC1)Oc1ccccc1C1CC(c3ccncc3)=NN12` (centres unmarked) has a remaining compound of 24.1%.
With `COc1ccc2c(c1)OC1c3ccc(O)cc3OCC21` (centres unmarked) the remaining compound was 71.8%.
With `CC(C)N(c1cnn(C)c1)S(=O)(=O)c1cn(C(C)C)cn1` the remaining compound was 97%.
The remaining compound of `CCOC(=O)Cn1c(=O)n(-c2cccc(O)c2)c2ncnc(N)c21` is reported as 74.6%.
The remaining compound of `CN(C)c1ccc2c(c1)C(c1ccccc1)CC2=O` (centres unmarked) is reported as 0.884%.
For `Cc1nn2c(=O)c(CCC(=O)NC(C)(C)c3noc(C(C)(C)C)n3)c(C)nc2[nH]1`, the remaining compound was 85.3%.
With `CCc1nn2c(c1-c1ccc(C)c(S(=O)(=O)N(C)c3ccc(C)c(C)c3)c1)NC(=O)CCC2=O` the remaining compound was 49.3%.
`Cc1ccccc1-c1noc(-c2ccc[nH]c2=O)n1` has a remaining compound of 88.4%.
`COC(=O)c1c(C(=O)OC)c(-c2ccc(N)cc2)n2c1CCC2` gave a remaining compound of 0.0682%.
The remaining compound of `COc1ccc(N(C)C(=O)c2cc(S(=O)(=O)N3CCc4ccccc43)cn2C)c(OC)c1` is reported as < 1%.
With `Cc1cc(C#N)cc(C(=O)c2c(C(C)C)c(=O)[nH]c(=O)n2Cc2cc(F)nc(OCCOCc3ccccc3)c2)c1` the remaining compound was 0.842%.

Study 4 — observed: binding; method: radioligand binding; tested at: 10 µM
Target: Muscarinic acetylcholine receptor M2 (CHRM2, Homo sapiens, UniProt P08172)
Sequence of UniProt P08172 (whole entry, looked up): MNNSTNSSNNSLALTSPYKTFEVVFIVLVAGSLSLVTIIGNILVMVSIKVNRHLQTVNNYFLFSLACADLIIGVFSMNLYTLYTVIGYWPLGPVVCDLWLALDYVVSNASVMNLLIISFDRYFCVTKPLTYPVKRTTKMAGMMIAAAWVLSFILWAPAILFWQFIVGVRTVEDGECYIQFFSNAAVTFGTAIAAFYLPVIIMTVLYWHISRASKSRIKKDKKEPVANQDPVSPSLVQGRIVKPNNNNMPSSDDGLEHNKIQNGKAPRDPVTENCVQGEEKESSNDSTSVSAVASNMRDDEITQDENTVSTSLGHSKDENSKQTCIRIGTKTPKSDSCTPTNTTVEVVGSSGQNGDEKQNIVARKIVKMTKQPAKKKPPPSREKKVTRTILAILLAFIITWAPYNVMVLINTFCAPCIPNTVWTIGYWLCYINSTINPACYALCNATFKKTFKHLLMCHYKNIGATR
`CNC(=O)Nc1ccc2c(c1)[C@]1(CC2)OC(=O)N(CC(=O)N(Cc2ccc(F)cc2)[C@@H](C)C(F)(F)F)C1=O` has an inhibition of 3.15%.
The inhibition of `C[C@@]1(Cc2ccc(C#N)cc2)C(=O)N(c2cc(Cl)cc(Cl)c2)c2ncc(C(=O)NC3(c4nc(C5CCC5)no4)CC3)n21` is reported as -8.35%.
The inhibition of `O=C(Nc1cnc(Oc2ccc(F)cc2)nc1)N1CCc2ncccc2[C@@H]1c1ccc(F)cc1` is reported as -5.1%.
`CN(C)C(=O)Cn1cc(-c2nc([C@@](C)(c3ccc(-c4cnc(N)nc4)cc3)C3CC3)no2)cn1` gave an inhibition of -7.52%.
For `COc1nc2ccc([C@@](O)(c3ccccc3)C3CCN(C(C)=O)CC3)cc2c(Cl)c1Cc1ccc(-n2cccn2)cc1`, the inhibition was 1.16%.
`Cc1nc(N2CC[C@@H](O)C2)ncc1-c1cc(C(F)(F)F)cc2[nH]ncc12` has an inhibition of -8.94%.
With `C[C@@H]1CN(c2cc(-c3nn(C)c4ccc(OC5(C)CC5)cc34)ncn2)C[C@H](C)O1` the inhibition was 21%.
`O=C(Nc1cccnn1)N1CCC(=Cc2cccc(Oc3ccc(C(F)(F)F)cn3)c2)CC1` gave an inhibition of 20.8%.
With `CCOCCn1cc(C(=O)Nc2ccc(-n3nc(-c4cccnc4)cc3C(F)(F)F)cn2)ccc1=O` the inhibition was -3%.
`CN([C@@H]1CCc2c(CC(=O)O)c3cc(S(C)(=O)=O)ccc3n2C1)S(=O)(=O)c1ccc(F)cc1` gave an inhibition of -9.24%.
The inhibition of `O=C1CCc2cc(Nc3cc(OC4CCOCC4)c([N+](=O)[O-])cc3Cl)ccc2N1` is reported as 5.41%.
With `Cc1c(NC(=O)c2cc(C(N)=O)nc3cc(F)ccc23)c(C(F)(F)F)nn1Cc1ccc(C(C)(C)C)cc1` the inhibition was 15.3%.
The inhibition of `CC1=C(C#N)[C@@H](c2ccc3[nH]nc(C)c3c2)C(C#N)=C(c2ccc(Cl)cc2)N1` is reported as 18.8%.
`CC(=O)c1c(NS(C)(=O)=O)c2cc(-c3ccc(Cl)cc3)c(-c3ccc(Cl)cc3Cl)nc2n(C)c1=O` gave an inhibition of -4.45%.
The inhibition of `O=C(Nc1cccnn1)N1CC(CC=Cc2cncc(Oc3ccc(C(F)(F)F)cn3)n2)C1` is reported as 20.7%.
The inhibition of `Cc1c[nH]c2nccc(Oc3c(F)cc(Nc4cc(Cl)nc(N)n4)cc3F)c12` is reported as 7.41%.
For `O=C([C@H]1C[C@H](O)CN1c1ccc(Cl)cc1)N1CC2COCC(C1)N2Cc1ccc(Cl)cc1`, the inhibition was 1.89%.
`O[C@]1(C(F)(F)F)CCCC[C@H]1Nc1ccc(F)cc1` has an inhibition of -2.71%.
`Cc1nc(Cc2cccc(C(F)(F)F)c2)sc1-c1ccc(C(N)=O)nc1` gave an inhibition of 12.8%.
`CC(C)(O)c1cncc(-c2nc3ccc(F)cc3n2C2CC2)c1` has an inhibition of -0.1%.
`CCOC(=O)c1cc2cc(-c3cc(C(=O)NCc4ccc(C(=O)O)cc4)nn3C)ccc2[nH]1` has an inhibition of -17.2%.
With `O=C(Nc1ccc(-n2nc(-c3cccnc3)cc2C(F)(F)F)cn1)c1ccc(-c2ccccc2)c(F)c1` the inhibition was 9.94%.
`Cc1nccc(COC(=O)N2C[C@@H]3[C@@H](CNC(=O)c4ccc5[nH]nnc5c4)[C@@H]3C2)n1` gave an inhibition of -5.6%.
For `CC(=O)Nc1c(F)cc(C(=O)N[C@H]2CC[C@H](O)CC2)cc1O[C@@H](C)c1ccccc1`, the inhibition was 18.1%.
`CN1C(=O)[C@@H](N2CCc3cn(Cc4ccccc4)nc3C2=O)COc2ccccc21` gave an inhibition of -4.37%.

Some of these lines once more (study 2):
For `CCOC(=O)N1CCC(=C2c3ccc(Cl)cc3CCc3cccnc32)CC1`, the inhibition was -32.5%.
The inhibition of `CN(C)CCc1c[nH]c2ccc(Cn3cncn3)cc12` is reported as -27.3%.
`O=C(O)CCNC(=O)c1ccc(/N=N/c2ccc(O)c(C(=O)O)c2)cc1` gave an inhibition of -18.3%.
For `O=C(O)c1cc(-c2ccc(F)cc2F)ccc1O`, the inhibition was -21.4%.
For `CC12CC3CC(C)(C1)CC(N)(C3)C2`, the inhibition was -6.2%.
`Nc1nc2c(ncn2CCC(CO)CO)c(=O)[nH]1` has an inhibition of -33.7%.
With `Cc1onc(-c2ccccc2)c1-c1ccc(S(N)(=O)=O)cc1` the inhibition was -21.9%.
For `Nc1nc2c(ncn2COCCO)c(=O)[nH]1`, the inhibition was -4.8%.
The inhibition of `CN(C)CC[C@@H](c1ccc(Cl)cc1)c1ccccn1` is reported as -18.6%.
`CN(C)CCCSc1ccccc1NC(=O)/C=C/c1ccccc1` has an inhibition of -36.4%.
The inhibition of `Nc1ccn([C@@H]2CS[C@H](CO)O2)c(=O)n1` is reported as -25.2%.
`CN1CCC(=C2c3ccccc3CC(=O)c3sccc32)CC1` gave an inhibition of -41.9%.
